Measurements from different studies.
Parts stem from different laboratories: compare values within a part only. Values joined by “and” are separate records of one study, mostly repeats; a detail may differ. ± gives the spread as reported.
Chain of UniProt Q86Z02 (whole entry, looked up): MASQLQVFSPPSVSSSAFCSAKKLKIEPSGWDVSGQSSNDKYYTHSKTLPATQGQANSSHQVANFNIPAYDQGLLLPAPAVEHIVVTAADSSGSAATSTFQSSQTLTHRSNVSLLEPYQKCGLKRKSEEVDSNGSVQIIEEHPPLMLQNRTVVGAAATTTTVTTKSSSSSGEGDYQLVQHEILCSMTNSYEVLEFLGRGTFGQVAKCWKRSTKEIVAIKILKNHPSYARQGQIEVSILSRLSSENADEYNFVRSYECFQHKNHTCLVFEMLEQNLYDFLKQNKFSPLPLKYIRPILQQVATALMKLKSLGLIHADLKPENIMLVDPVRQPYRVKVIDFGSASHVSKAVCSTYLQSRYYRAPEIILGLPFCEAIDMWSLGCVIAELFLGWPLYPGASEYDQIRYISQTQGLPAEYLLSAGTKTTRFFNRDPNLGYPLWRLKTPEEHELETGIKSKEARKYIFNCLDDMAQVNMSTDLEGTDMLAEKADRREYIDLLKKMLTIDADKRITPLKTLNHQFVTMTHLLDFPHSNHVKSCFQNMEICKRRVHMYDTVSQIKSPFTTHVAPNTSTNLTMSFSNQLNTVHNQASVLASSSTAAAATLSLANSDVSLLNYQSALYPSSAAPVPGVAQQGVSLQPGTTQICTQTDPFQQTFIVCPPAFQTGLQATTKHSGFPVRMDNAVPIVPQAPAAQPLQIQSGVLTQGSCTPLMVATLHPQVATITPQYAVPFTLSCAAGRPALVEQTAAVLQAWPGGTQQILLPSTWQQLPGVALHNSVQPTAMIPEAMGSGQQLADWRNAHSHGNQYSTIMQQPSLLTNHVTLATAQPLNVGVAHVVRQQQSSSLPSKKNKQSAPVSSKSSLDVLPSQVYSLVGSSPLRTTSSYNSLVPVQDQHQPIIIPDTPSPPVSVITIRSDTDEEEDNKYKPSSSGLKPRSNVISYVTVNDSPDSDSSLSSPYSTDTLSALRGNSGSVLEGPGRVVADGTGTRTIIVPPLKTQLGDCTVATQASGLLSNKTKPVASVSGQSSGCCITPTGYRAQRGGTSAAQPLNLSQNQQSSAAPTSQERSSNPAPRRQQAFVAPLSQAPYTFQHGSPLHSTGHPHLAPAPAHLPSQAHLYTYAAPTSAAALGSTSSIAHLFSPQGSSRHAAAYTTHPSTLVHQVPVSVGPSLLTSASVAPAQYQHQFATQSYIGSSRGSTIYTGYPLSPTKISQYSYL
Chain of UniProt Q99640 (whole entry, looked up): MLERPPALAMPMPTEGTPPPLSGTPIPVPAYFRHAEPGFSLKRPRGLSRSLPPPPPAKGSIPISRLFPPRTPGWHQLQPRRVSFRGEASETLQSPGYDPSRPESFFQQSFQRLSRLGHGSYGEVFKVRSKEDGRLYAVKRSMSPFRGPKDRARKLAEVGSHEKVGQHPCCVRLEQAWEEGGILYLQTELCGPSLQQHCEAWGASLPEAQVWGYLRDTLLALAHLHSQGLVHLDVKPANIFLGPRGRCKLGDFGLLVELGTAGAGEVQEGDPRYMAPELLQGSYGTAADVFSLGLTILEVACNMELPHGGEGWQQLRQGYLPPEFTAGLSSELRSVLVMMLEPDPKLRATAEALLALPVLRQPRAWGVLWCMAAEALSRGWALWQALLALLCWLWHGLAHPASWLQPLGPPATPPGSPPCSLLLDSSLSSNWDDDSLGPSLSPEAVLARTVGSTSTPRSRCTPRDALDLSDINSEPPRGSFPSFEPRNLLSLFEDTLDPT

Series 1
SMILES: CCN1/C(=C/C=C2\CCCC(/C=C/C3=[N+](CC)c4ccccc4C3(C)C)=C2NCCCCCCCCN2CCC(Nc3nc4ccccc4n3Cc3ccc(F)cc3)CC2)C(C)(C)c2ccccc21
Cell line: U-87 MG
Tested at: concentration not given
Baseline: DMSO
Endpoint: log2 fold change
measured: LRRC17 mRNA: -3.16
measured: CGB8 mRNA: -2.04
measured: DACT1 mRNA: 1.2
measured: TP53RK mRNA: 1.02
measured: HPS3 mRNA: -0.825
measured: SUN2 mRNA: -1.68
measured: PODNL1 mRNA: -1.65
measured: DUSP8 mRNA: 1.38
measured: NDRG1 mRNA: 1.75
measured: PPP1R15A mRNA: 2.25
measured: TCOF1 mRNA: -0.928
measured: ZNF827 mRNA: -0.925
measured: ZNF408 mRNA: 0.806
measured: MED10 mRNA: 0.922
measured: GAP43 mRNA: -2.58
measured: EEF2K mRNA: -1.26

Series 2
SMILES: COc1cc(-c2nc3ccc(C(=O)NCCCN4CCN(c5cccc(C)c5C)CC4)cc3n2C2CCC2)cc(OC)c1OC
Read-out: binding
Technique: competition with immobilised ligand
Tested at: 1 µM
Endpoint: remaining binding
BMPR1A (Homo sapiens, UniProt P36894): 53%
PIM2 (Homo sapiens, UniProt Q9P1W9): 92%
CAMK4 (Homo sapiens, UniProt Q16566): 78%
IKBKB (Homo sapiens, UniProt O14920): 91%
EPHA5 (Homo sapiens, UniProt P54756): 91%
RET (Homo sapiens, UniProt P07949): 100%
PIK3CG (Homo sapiens, UniProt P48736): 87%
STK35 (Homo sapiens, UniProt Q8TDR2): 93%
Tyrosine-protein kinase ABL1, phosphorylated (ABL1, Homo sapiens, UniProt P00519, M351T): 74%
AKT2 (Homo sapiens, UniProt P31751): 100%
BMPR1B (Homo sapiens, UniProt O00238): 35%
STK39 (Homo sapiens, UniProt Q9UEW8): 90%
CILK1 (Homo sapiens, UniProt Q9UPZ9): 88%
Receptor-type tyrosine-protein kinase FLT3, autoinhibited (FLT3, Homo sapiens, UniProt P36888): 97%
MAPKAPK2 (Homo sapiens, UniProt P49137): 90%
PNCK (Homo sapiens, UniProt Q6P2M8): 93%
PKMYT1 (Homo sapiens, UniProt Q99640): 88%
CAMK1G (Homo sapiens, UniProt Q96NX5): 86%
LYN (Homo sapiens, UniProt P07948): 79%
BMP2K (Homo sapiens, UniProt Q9NSY1): 99%
EPHA1 (Homo sapiens, UniProt P21709): 91%

Series 3
Organism: Arabidopsis thaliana
Strain: Col-0
Tested at: 6.25 µg/mL
Notes: seed germination, single repetition
Endpoint: hypocotyl length
O=C(O)C1(O)Oc2cc(Cl)ccc2N(Cc2ccccc2)C1=O (stereo not shown): 2.05 cm and 2.07 cm
O=C(O)C1(O)Oc2ccccc2N(Cc2ccccc2)C1=O (stereo not shown): 1.92 cm and 1.91 cm and 1.9 cm
CC(C)=CCN1C(=O)C(O)(C(=O)O)Oc2cc(F)ccc21 (stereo not shown): 2.03 cm and 1.96 cm and 2.04 cm and 1.95 cm and 2.02 cm
CCN1C(=O)C(O)(C(=O)O)Oc2cc(F)ccc21 (stereo not shown): 2.07 cm and 1.99 cm and 2.01 cm and 2.12 cm and 2.13 cm
CC(C)(C)c1ccc(Oc2ccc3c(c2)OC(O)(C(=O)O)C(=O)N3Cc2ccccc2)cc1 (stereo not shown): 2.05 cm and 2.06 cm and 1.96 cm and 2.01 cm

Series 4
Target: Sodium-dependent neutral amino acid transporter B(0)AT1 (SLC6A19, Homo sapiens, UniProt Q695T7)
Chain of UniProt Q695T7 (whole entry, looked up): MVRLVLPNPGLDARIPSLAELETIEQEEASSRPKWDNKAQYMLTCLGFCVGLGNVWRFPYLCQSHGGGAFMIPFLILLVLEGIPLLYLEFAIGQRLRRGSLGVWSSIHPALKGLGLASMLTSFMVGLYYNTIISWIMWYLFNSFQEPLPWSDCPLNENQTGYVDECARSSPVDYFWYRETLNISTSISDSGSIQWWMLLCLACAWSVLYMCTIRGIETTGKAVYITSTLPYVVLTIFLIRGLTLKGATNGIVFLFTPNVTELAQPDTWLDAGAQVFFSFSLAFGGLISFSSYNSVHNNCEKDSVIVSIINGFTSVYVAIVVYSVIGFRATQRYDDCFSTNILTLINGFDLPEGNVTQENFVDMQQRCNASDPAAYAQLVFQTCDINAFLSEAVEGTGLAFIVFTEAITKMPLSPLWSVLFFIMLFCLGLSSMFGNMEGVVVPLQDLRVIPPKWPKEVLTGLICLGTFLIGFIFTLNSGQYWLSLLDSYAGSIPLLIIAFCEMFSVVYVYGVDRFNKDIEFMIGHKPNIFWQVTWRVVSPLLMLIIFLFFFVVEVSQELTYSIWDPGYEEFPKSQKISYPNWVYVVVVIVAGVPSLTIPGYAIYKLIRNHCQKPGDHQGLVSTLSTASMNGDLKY
Mode: inhibitor
Technique: FLIPR membrane potential
Cells: CHO-BC cells
Tested at: 30 µM
Together with: L-leucine 1.5 mM
Baseline: cinromide
Endpoint: activity
Cc1cc(OCC(=O)OC(C)C)cc(C)c1Cl: 102 ± 10%
CCCCNC(=O)COc1cc(C)c(Cl)c(C)c1: 105 ± 5%
Cc1cc(OCC(=O)NC(C)C)cc(C)c1I: 5 ± 1%

Series 5
Compound: CCC1(c2cccc(-c3cn(C)nc3C)c2)C2=C(Nc3n[nH]cc31)C(F)C(C)(C)CC2=O (single isomer, unassigned)
Tested at: 1 µM
Endpoint: remaining binding
Tyrosine-protein kinase ABL1, phosphorylated (ABL1, Homo sapiens, UniProt P00519, Y253F); kinase binding, KINOMEscan; baseline: DMSO control: 71%
BMPR1B (Homo sapiens, UniProt O00238); binding, competition with immobilised ligand: 98%
PRKD2 (Homo sapiens, UniProt Q9BZL6); binding, competition with immobilised ligand: 66%
Ribosomal protein S6 kinase alpha-6, C-terminal kinase domain (RPS6KA6, Homo sapiens, UniProt Q9UK32); binding, competition with immobilised ligand: 100%
CLK2 (Homo sapiens, UniProt P49760); kinase binding, KINOMEscan; baseline: DMSO control: 100%
Tyrosine-protein kinase ABL1, phosphorylated (ABL1, Homo sapiens, UniProt P00519, F317I); kinase binding, KINOMEscan; baseline: DMSO control: 88%
Tyrosine-protein kinase ABL1, non-phosphorylated (ABL1, Homo sapiens, UniProt P00519); binding, competition with immobilised ligand: 67%
MUSK (Homo sapiens, UniProt O15146); kinase binding, KINOMEscan; baseline: DMSO control: 100%
PRKD1 (Homo sapiens, UniProt Q15139); kinase binding, KINOMEscan; baseline: DMSO control: 99%
STK4 (Homo sapiens, UniProt Q13043); binding, competition with immobilised ligand: 95%
RET (Homo sapiens, UniProt P07949, M918T); binding, competition with immobilised ligand: 100%
WNK3 (Homo sapiens, UniProt Q9BYP7); binding, competition with immobilised ligand: 100%
LIM domain kinase 1 (LIMK1, Homo sapiens, UniProt P53667); binding, competition with immobilised ligand: 100%
Tyrosine-protein kinase ABL1, non-phosphorylated (ABL1, Homo sapiens, UniProt P00519, H396P); kinase binding, KINOMEscan; baseline: DMSO control: 88%
TIE1 (Homo sapiens, UniProt P35590); binding, competition with immobilised ligand: 100%
HIPK1 (Homo sapiens, UniProt Q86Z02); kinase binding, KINOMEscan; baseline: DMSO control: 78%
WNK4 (Homo sapiens, UniProt Q96J92); kinase binding, KINOMEscan; baseline: DMSO control: 77%
EGFR (Homo sapiens, UniProt P00533, G719C); binding, competition with immobilised ligand: 100%
ABL2 (Homo sapiens, UniProt P42684); kinase binding, KINOMEscan; baseline: DMSO control: 100%
TAOK1 (Homo sapiens, UniProt Q7L7X3); kinase binding, KINOMEscan; baseline: DMSO control: 100%

Series 6
Compound: CCN1CCN(Cc2ccc(COc3c(-c4c(C)c(F)cc5[nH]ncc45)c(C4CC4)cc4c(N5C[C@@H]6C[C@H]5CN6)nc(OC5CCOCC5)nc34)cc2)C(=O)C1
Technique: CellTiter-Glo
Endpoint: viability
AsPC-1 (KRAS G12D); 1 nM: 77.8% and 80.5% and 82% and 71.9%
AsPC-1 (KRAS G12D); 100 nM: 72.2% and 73.1% and 88.6% and 72.9%
AsPC-1 (KRAS G12D); 10 nM: 89.3% and 90.5% and 81.2% and 101%
AsPC-1 (KRAS G12D); 10 µM: 0.025% and 0.001%
AsPC-1 (KRAS G12D); 300 nM: 38.9% and 38.3% and 38.6% and 34.6%
AsPC-1 (KRAS G12D); 30 nM: 107% and 110% and 101% and 93.2%
A-375 (KRAS wild type); 30 nM, 6 days; baseline: DMSO: 102% and 101% and 97% and 106%
AsPC-1 (KRAS G12D); 3 nM: 82.6% and 74.9% and 95.1% and 86%

Series 7
SMILES: CN(C1COC1)C(C)(C)/C=C(\C#N)C(=O)N1CCC[C@H]1Cn1nc(-c2ccc(Oc3ccccc3)cc2F)c2c(N)ncnc21
Read-out: kinase activity
Endpoint: inhibition
PDGFRB: Platelet-derived growth factor receptor beta (PDGFRB, Homo sapiens, UniProt P09619)
Chain of UniProt P09619 (whole entry, looked up): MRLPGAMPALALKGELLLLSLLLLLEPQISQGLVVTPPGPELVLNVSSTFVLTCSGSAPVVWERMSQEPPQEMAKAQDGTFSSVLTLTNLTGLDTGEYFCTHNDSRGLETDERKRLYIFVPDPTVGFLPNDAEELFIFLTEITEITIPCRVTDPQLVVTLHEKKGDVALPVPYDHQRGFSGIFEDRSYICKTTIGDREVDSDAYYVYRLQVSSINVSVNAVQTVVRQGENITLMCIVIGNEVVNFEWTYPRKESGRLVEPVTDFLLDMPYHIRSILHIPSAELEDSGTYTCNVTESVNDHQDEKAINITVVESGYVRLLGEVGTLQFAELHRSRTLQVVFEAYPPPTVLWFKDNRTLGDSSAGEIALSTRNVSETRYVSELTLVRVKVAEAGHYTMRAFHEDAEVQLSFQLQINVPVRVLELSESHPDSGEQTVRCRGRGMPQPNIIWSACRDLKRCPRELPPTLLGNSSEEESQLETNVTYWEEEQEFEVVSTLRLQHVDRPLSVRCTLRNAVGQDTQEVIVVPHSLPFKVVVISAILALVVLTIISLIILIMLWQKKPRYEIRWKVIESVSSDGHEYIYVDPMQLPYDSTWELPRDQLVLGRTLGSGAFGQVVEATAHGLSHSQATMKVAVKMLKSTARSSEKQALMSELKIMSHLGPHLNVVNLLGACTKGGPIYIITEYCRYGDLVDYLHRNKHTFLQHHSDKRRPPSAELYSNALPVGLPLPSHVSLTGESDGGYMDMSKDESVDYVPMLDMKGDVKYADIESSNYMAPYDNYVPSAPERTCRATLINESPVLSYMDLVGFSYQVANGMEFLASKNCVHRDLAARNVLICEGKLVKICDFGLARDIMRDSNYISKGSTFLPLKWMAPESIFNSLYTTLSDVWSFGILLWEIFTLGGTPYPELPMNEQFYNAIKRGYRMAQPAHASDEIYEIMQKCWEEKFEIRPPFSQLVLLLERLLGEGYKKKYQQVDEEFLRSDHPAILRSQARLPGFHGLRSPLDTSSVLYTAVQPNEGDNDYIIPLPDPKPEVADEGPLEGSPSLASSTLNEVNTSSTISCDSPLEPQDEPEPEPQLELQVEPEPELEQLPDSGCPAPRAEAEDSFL
DYRK3: Dual specificity tyrosine-phosphorylation-regulated kinase 3 (DYRK3, Homo sapiens, UniProt O43781)
TNK2 (Homo sapiens, UniProt Q07912); 1 µM: -3%
STK26 (Homo sapiens, UniProt Q9P289); 0.1 µM: 8%
KDR (Homo sapiens, UniProt P35968); 1 µM: 2%
PRKD2 (Homo sapiens, UniProt Q9BZL6); 1 µM: 8%
PDGFRB; 0.1 µM: -4%
HCK (Homo sapiens, UniProt P08631); 0.1 µM: 17%
GRK6 (Homo sapiens, UniProt P43250); 0.1 µM: -1%
TSSK2 (Homo sapiens, UniProt Q96PF2); 0.1 µM: 5%
EIF2AK3 (Homo sapiens, UniProt Q9NZJ5); 0.1 µM: -9%
MELK (Homo sapiens, UniProt Q14680); 0.1 µM: 5%
Cyclin-dependent kinase 6, with cyclin D3 (CDK6, Homo sapiens, UniProt Q00534); 0.1 µM: 6%
DAPK3 (Homo sapiens, UniProt O43293); 1 µM: -3%
DYRK3; 0.1 µM: 2%
EPHA4 (Homo sapiens, UniProt P54764); 1 µM: -1%
PI4KB (Homo sapiens, UniProt Q9UBF8); 0.1 µM: 6%
HIPK1 (Homo sapiens, UniProt Q86Z02); 1 µM: 2%
DYRK3; 1 µM: 1%
PDGFRB; 1 µM: 14%
RPS6KB2 (Homo sapiens, UniProt Q9UBS0); 1 µM: -2%
STK10 (Homo sapiens, UniProt O94804); 1 µM: 5%
INSRR (Homo sapiens, UniProt P14616); 1 µM: 0%

Series 8
SMILES: C[C@@H]1CN(c2ccc(-c3cc(C(=O)NCCOCCOCCOCCOCCOCCOCCNC(=O)/C=C/c4[nH]cc(C(=O)N[C@@H](CC(N)=O)c5ccc(F)c(Cl)c5)c4-c4ccc(Cl)cc4F)ccc3F)cc2NC(=O)c2ccc(F)cc2C(F)(F)F)C[C@H](C)N1C
Read-out: thermal unfolding
Technique: differential scanning fluorimetry
Tested at: 5.5 µM
Direction: higher = more unfolded
Endpoint: SYPRO Orange fluorescence
DCAF1: DDB1- and CUL4-associated factor 1 (DCAF1, Homo sapiens, UniProt Q9Y4B6)
Chain of UniProt Q9Y4B6 (whole entry, looked up): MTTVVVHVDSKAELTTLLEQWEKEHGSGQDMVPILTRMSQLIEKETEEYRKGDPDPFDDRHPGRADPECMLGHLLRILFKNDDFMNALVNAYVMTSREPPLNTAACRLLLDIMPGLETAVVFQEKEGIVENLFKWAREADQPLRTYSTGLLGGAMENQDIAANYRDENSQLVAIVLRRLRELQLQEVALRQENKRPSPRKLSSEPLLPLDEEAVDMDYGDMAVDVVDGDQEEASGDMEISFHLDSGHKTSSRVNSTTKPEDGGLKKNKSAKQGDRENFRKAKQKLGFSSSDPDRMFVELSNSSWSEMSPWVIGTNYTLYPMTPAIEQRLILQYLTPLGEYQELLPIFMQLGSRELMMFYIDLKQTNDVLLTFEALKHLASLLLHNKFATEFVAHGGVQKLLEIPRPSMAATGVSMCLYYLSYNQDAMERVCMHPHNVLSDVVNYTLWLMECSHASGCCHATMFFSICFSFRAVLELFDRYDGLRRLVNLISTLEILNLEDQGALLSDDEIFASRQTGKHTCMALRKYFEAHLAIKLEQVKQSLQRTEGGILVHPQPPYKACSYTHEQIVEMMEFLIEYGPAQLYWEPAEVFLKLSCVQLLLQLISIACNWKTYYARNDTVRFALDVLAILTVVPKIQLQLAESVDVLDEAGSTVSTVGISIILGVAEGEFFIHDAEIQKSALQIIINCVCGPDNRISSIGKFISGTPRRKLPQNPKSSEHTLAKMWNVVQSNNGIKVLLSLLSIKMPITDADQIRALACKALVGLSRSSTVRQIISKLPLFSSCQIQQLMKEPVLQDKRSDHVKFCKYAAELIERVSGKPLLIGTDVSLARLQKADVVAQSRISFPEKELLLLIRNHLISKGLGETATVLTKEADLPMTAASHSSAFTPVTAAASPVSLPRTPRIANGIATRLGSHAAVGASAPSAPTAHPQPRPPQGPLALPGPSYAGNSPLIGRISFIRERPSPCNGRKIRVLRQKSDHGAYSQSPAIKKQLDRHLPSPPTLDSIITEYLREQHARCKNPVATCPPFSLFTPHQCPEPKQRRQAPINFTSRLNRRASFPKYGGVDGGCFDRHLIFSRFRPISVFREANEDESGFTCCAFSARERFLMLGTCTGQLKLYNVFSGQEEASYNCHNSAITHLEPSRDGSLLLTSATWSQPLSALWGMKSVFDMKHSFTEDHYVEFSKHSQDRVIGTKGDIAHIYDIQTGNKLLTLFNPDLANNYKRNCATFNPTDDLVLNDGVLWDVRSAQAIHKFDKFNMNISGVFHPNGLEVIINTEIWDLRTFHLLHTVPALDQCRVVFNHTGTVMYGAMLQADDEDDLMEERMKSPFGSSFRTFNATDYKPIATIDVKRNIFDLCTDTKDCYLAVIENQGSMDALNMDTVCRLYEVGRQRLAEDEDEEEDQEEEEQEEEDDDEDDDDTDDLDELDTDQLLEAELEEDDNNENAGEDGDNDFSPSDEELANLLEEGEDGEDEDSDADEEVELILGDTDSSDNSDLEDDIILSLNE
WDR5: WD repeat-containing protein 5 (WDR5, Homo sapiens, UniProt P61964)
DCAF1; 79.81 °C: 40100 a.u.
WDR5; 30.4 °C: 13500 a.u.
WDR5; 77.21 °C: 57700 a.u.
DCAF1; 85.01 °C: 35900 a.u.
WDR5; 82.21 °C: 65600 a.u.
DCAF1; 39.8 °C: 11300 a.u.
WDR5; 30 °C: 13600 a.u.
WDR5; 50.8 °C: 16700 a.u.
WDR5; 49.6 °C: 16200 a.u.
DCAF1; 40.2 °C: 11600 a.u.
WDR5; 46.4 °C: 14900 a.u.

Single results of other studies
Cc1ccc(O)c(C)c1-c1cnc2[nH]c(-c3cnc(N4CCC(CCN5CCN(c6ccc7c(c6)C(=O)N(C6CCC(=O)NC6=O)C7=O)CC5)CC4)nc3)cc2c1C#N (racemic)
pCDK1 (Thr14) level (HCC1569; in-cell western, measured: CDK1 phospho-Thr14; 1000 nM): 104 RLU and 106 RLU

Cc1ccc(O)c(C)c1-c1cnc2[nH]c(-c3cnc(N4CCC5(CC4)CC(N4CCN(c6ccc(N[C@H]7CCC(=O)N(C)C7=O)cc6F)CC4)CO5)nc3)cc2c1C#N (single isomer, unassigned)
EC50 (PKMYT1 (Homo sapiens, UniProt Q99640); target engagement, NanoBRET): 8 nM

Cc1ccc(O)c(C)c1-c1cnc2[nH]c(-c3cnc(N4CCC(CN5CCN(c6ccc7c(c6F)CN(C6CCC(=O)NC6=O)C7=O)CC5)CC4)nc3)cc2c1C#N (stereo not shown)
pCDK1 (Thr14) level (HCC1569; in-cell western, measured: CDK1 phospho-Thr14; 10000 nM): 144 RLU and 139 RLU

Cc1ncc(-c2cc3c(C#N)c(-c4c(C)ccc(O)c4C)cnc3[nH]2)cn1
Papp A→B (Caco-2; 2 µM, 2 h, pH 7.4): 5.46 ×10⁻⁶ cm/s

Repeated from above (series 6):
AsPC-1 (KRAS G12D); 100 nM: 72.2% and 73.1% and 88.6% and 72.9%
AsPC-1 (KRAS G12D); 10 nM: 89.3% and 90.5% and 81.2% and 101%
AsPC-1 (KRAS G12D); 10 µM: 0.025% and 0.001%
AsPC-1 (KRAS G12D); 300 nM: 38.9% and 38.3% and 38.6% and 34.6%
AsPC-1 (KRAS G12D); 30 nM: 107% and 110% and 101% and 93.2%
A-375 (KRAS wild type); 30 nM, 6 days; baseline: DMSO: 102% and 101% and 97% and 106%
AsPC-1 (KRAS G12D); 3 nM: 82.6% and 74.9% and 95.1% and 86%
